Published values pooled from the literature.
Each numbered part is a random draw from the data of one study; scales do not carry over between parts. Numbers after ± are the reported error.
Sequence of UniProt Q9UQM7 (whole entry, looked up): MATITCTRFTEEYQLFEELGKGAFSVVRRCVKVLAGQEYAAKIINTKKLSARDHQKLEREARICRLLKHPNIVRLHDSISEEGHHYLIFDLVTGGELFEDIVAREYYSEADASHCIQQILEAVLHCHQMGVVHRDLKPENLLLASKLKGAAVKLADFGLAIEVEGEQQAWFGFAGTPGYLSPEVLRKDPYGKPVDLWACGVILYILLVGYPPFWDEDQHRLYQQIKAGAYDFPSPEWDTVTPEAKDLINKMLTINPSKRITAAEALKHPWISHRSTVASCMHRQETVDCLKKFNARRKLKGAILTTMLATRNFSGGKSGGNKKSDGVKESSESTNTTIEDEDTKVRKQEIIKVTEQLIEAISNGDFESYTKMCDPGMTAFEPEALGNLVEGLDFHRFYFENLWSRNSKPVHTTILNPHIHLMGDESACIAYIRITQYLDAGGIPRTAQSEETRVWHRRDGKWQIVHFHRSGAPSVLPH
Sequence of UniProt Q6Q1S2 (whole entry, looked up): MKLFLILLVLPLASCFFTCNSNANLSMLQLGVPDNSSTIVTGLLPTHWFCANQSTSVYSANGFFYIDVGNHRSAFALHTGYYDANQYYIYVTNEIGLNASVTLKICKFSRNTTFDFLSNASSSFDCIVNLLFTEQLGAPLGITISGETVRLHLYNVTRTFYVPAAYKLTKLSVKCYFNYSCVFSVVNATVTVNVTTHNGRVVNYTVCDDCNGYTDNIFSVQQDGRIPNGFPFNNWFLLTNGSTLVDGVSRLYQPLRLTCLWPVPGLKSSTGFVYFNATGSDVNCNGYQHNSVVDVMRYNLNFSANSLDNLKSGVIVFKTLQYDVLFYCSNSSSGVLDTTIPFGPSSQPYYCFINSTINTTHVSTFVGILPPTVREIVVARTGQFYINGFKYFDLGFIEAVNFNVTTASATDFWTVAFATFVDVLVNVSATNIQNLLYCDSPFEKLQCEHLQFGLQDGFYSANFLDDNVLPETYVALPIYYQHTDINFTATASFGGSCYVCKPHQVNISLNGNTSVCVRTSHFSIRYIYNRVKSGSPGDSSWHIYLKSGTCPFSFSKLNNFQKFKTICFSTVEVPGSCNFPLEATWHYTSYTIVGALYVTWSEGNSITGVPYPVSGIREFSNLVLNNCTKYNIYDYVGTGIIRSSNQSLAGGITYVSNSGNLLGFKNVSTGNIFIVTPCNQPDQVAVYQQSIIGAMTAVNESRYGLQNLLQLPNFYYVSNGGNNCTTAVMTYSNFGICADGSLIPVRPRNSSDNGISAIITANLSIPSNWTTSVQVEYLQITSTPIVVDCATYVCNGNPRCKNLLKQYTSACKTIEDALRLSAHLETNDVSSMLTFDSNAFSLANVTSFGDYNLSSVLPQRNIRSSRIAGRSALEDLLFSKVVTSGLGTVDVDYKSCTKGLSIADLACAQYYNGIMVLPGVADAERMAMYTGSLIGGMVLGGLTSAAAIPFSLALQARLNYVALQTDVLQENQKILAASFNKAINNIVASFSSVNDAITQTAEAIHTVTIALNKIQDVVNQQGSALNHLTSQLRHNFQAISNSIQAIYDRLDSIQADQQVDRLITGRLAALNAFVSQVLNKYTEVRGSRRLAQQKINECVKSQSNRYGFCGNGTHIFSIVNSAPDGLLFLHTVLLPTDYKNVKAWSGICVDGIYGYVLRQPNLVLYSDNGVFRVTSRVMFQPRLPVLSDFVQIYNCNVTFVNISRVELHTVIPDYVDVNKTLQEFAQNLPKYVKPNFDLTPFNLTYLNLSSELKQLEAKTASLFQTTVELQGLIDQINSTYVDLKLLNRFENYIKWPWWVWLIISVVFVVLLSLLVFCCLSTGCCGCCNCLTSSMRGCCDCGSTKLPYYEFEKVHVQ
Sequence of UniProt P03300 (whole entry, looked up): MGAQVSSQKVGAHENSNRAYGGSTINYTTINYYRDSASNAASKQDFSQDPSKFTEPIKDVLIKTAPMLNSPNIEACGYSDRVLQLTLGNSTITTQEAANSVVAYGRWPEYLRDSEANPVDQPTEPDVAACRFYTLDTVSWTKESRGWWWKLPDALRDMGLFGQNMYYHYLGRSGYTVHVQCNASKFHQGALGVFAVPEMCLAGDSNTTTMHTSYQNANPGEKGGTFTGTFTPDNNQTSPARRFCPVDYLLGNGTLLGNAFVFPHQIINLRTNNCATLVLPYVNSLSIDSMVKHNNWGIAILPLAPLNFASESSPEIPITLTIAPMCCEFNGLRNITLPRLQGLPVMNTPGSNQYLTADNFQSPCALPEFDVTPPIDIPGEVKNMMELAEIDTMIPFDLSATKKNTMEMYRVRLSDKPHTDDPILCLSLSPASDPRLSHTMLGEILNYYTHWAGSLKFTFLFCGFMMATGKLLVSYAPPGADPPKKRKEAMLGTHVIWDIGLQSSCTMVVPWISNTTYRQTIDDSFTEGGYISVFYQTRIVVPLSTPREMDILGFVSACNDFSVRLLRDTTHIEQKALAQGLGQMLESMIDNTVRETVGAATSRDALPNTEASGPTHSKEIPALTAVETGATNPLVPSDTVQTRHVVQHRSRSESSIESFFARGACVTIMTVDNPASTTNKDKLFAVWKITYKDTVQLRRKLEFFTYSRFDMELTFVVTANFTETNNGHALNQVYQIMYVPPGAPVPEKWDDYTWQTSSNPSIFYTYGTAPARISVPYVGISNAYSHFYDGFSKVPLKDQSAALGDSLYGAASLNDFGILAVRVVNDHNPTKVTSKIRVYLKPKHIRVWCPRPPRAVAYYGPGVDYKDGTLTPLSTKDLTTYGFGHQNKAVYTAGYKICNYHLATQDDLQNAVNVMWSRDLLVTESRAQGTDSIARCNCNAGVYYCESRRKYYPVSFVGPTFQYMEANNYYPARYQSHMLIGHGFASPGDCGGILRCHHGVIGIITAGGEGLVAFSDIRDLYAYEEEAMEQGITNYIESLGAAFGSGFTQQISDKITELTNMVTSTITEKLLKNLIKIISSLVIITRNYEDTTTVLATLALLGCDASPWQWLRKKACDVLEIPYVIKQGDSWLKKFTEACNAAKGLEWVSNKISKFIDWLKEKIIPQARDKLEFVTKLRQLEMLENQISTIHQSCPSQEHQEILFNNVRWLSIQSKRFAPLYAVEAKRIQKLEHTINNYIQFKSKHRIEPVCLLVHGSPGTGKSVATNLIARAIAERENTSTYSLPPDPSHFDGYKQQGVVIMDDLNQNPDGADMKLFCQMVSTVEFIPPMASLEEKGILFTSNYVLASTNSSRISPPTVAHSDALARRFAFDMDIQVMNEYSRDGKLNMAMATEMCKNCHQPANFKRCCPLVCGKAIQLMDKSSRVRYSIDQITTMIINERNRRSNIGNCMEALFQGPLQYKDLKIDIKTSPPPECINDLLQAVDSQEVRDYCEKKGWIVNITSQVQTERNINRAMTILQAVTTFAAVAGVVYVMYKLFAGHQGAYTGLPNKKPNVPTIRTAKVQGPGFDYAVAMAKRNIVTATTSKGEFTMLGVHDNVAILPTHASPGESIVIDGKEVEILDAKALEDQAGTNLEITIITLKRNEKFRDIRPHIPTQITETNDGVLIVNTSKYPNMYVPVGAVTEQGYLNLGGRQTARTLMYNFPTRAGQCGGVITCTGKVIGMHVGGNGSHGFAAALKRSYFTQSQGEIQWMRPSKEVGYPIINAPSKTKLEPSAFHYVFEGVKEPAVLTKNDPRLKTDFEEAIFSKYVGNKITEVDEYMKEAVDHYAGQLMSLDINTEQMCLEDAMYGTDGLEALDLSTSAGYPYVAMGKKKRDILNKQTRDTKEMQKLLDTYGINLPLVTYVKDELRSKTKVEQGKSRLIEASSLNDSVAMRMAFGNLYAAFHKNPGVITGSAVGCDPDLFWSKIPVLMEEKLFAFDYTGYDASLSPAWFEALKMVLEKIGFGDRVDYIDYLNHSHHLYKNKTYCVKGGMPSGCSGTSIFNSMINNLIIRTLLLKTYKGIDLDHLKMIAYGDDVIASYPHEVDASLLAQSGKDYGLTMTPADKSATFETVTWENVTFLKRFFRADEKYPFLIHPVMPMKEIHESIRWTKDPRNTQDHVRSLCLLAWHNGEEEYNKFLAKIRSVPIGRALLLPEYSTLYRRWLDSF

Set 1 — cell line: HEK-293T; observed: pseudovirus infection; technique: FDA-approved drug library screen; organism: VSV pseudotyped with SARS-CoV-2 spike; tested at: 10 µM; time: 16 h; baseline: vehicle-treated; endpoint: GFP-positive cells
Cc1ccc(O)c([C@H](CCN(C(C)C)C(C)C)c2ccccc2)c1: 30%
CCCc1nc(C(C)(C)O)c(C(=O)OCc2oc(=O)oc2C)n1Cc1ccc(-c2ccccc2-c2nnn[nH]2)cc1: 86.2%
CC(C)(C)NC(=O)[C@H]1CC[C@H]2[C@@H]3CC[C@H]4NC(=O)C=C[C@]4(C)[C@H]3CC[C@]12C: 99.3%

Set 2 — action: inhibitor; tested at: 20 µM; endpoint: inhibition
Target: Replicase polyprotein 1ab, nsp13 helicase (rep, Severe acute respiratory syndrome coronavirus 2, UniProt P0DTD1)
O=C(O)Cc1ccc(OCCNC[C@H](O)c2ccccc2)cc1: -13.1%
CC1CCc2cc(F)cc3c(=O)c(C(=O)O)cn1c23 (stereo not shown): -5.44%
CCCCCCCCCCC(=O)O[C@H]1CC[C@H]2[C@@H]3CCC4=CC(=O)CC[C@]4(C)[C@H]3CC[C@]12C: 4.51%
Cn1c(-c2ccccc2)nnc1S(C)(=O)=O: 5.02%
CC(C)[N+](C)(CCC(C(N)=O)(c1ccccc1)c1ccccc1)C(C)C: -3.33%
CCC(=O)Nc1cccc(Oc2nc(Nc3ccc(N4CCN(C)CC4)cc3OC)ncc2Cl)c1: 6.56%
O=C(Nc1ccc(Cl)cc1)Nc1ccc(Cl)c(Cl)c1: 2.11%
CCCOc1ccc(S(=O)(=O)N2CCN(CCO)CC2)cc1-c1nc2c(CCC)cn(CC)c2c(=O)[nH]1: 5.41%
CC(C)(c1ccc(O)cc1)c1ccc(O)cc1: 4.97%
CCn1c(=O)[nH]c2cc(Cl)c(Cl)cc21: 5.21%
COc1cc2c(c(OC)c1OC)-c1c(cc3c(c1OC)OCO3)C[C@H](C)[C@@](C)(O)C2: 5.54%
COc1cc(C[C@@H](CO)[C@H](CO)Cc2ccc(O)c(OC)c2)ccc1O: 1.35%
CC(C)=CCC/C(C)=C/CC/C(C)=C/CSc1ccccc1C(N)=O: -0.64%
O=C(Nc1cc(C(F)(F)F)ccc1O)Nc1cc(C(F)(F)F)ccc1O: 5.28%
O=C(O)c1c(Sc2ccccc2)c2cc(Cl)ccc2n1Cc1ccc(Cl)cc1: 55.3%
CN1CCC(=C2c3ccccc3CC(=O)c3sccc32)CC1: 7.79%
CCc1cnc(N2CCC(c3nc(COc4ccc(-n5cnnn5)cc4)cs3)CC2)nc1: 5.88%
CN(C(=O)CN1C(=O)COc2cc(Cl)c(Cl)cc21)[C@@H](CN1CCCC1)c1ccc(-c2cccc(C(N)=O)c2)cc1: 11%
CC(CCc1ccc(O)cc1)NCC(O)c1ccc(O)cc1 (stereo not shown): 6.5%
Cc1ncc(-c2ccnc(Nc3ccc(S(C)(=O)=O)cc3)n2)n1C(C)C: 9.5%
Oc1ccc(Nc2nc(-c3ccc(Cl)cc3)cs2)cc1: 2.14%
NC(N)=Nc1ccc(Cl)cc1: 4.71%
COC(=O)C(N)CS (stereo not shown): -4.99%

Set 3 — Compound: Cc1ccc(C(=O)n2nc(-c3cccnc3)nc2N)cc1; observed: enzyme activity; tested at: 20 µM; endpoint: inhibition
Target: Replicase polyprotein 1ab, main protease (rep, Severe acute respiratory syndrome coronavirus 2, UniProt P0DTD1)
with DTT: 49.7%
inhibitor; hit confirmation: 84.3%
inhibitor: 49.7%

Further values, each from its own experiment
CN(C)c1ccc(N(Cc2cc(Cl)cs2)C(=O)Cc2cncc3ccccc23)cc1 — selectivity index (SARS-CoV-2; Caco-2, Omicron BA.5; baseline: CC50 over EC50): 257
CCC(CC)O[C@@H]1C=C(C(=O)O)C[C@H](N)[C@H]1NC(C)=O — IC50 (neuraminidase (Influenza A virus, UniProt A0A088CBR8)): 0.00201 µM
CN[C@@H]1[C@H](O[C@@H]2OC[C@@H](O)[C@H](O)[C@H]2O)[C@@H](O)[C@H](O[C@H]2c3cc(C)c(C(=O)N[C@H](C)C(=O)O)c(O)c3-c3c(cc4c(c3O)C(=O)c3cc(OC)cc(O)c3C4=O)[C@@H]2O)O[C@@H]1C — EC50 (transmissible gastroenteritis virus; viral cytopathicity, MTT; ST, Purdue; 72 h): 4.7 ± 0.8 µM
CN1C(=O)[C@]23CC4=CC=C[C@H](O)[C@H]4N2C(=O)[C@@]1(CO)SS3 — inhibition (CAMK2A (Homo sapiens, UniProt Q9UQM7); enzyme activity, inhibitor; 10 µM): -35%
COc1ccn(C)c(=O)c1C#N — remaining activity (DNA polymerase theta, ATPase domain (POLQ, Homo sapiens, UniProt O75417); enzyme activity, inhibitor; 77 µM; baseline: untreated): 102%
CCOC(=O)CC(SP(=S)(OC)OC)C(=O)OCC (stereo not shown) — nuclear SOX9 intensity (mouse MPNST tumor cells; high-content immunofluorescence imaging, refers to: nuclear SOX9; 10 µM, 12 h, mean of 2 replicates; baseline: DMSO control, higher = more nuclear SOX9): 88.7 % of DMSO
C=CC(=O)Nc1cc(C)nc(N2CCOCC2)n1 — IC50 (Polyprotein P1234, nsP2 protease domain (Chikungunya virus, UniProt Q5XXP4); enzyme activity, inhibitor, FRET; 90 min, 30 min preincubation): 33 ± 5 µM
CC(=O)c1c(O)c(C)c(O)c(Cc2c(O)c3c(c(C(=O)/C=C/c4ccccc4)c2O)OC(C)(C)C=C3)c1O — slow deactivation time constant (KCNH2 (Homo sapiens, UniProt Q12809); ion current, whole-cell patch clamp; HEK293 expressing hERG1; 4 µM, at -120 mV): 126 ± 19 ms
N#CC(=Cc1ccc(O)cc1)C(=O)O — nuclei count (mouse MPNST tumor cells; high-content nuclear imaging, refers to: cell number; 10 µM, 12 h, mean of 2 replicates; baseline: plate mean, higher = more cells): 1.14 z-score
Cc1cccc(CN2CCN(C(c3ccccc3)c3ccc(Cl)cc3)CC2)c1 (stereo not shown) — IC50 (SARS-CoV-2; viral replication; Huh-7): > 2 µM
Nc1ncnc2c1ncn2[C@@H]1O[C@H](COP(=O)(O)OP(=O)(O)OP(=O)(O)O)[C@@H](O)[C@H]1O — Kd (Genome polyprotein, 3D RNA polymerase (Human poliovirus 1 Mahoney, UniProt P03300)): 5 ± 1 µM
NC[C@H]1OB(O)c2c(OCCCO)cccc21 — IC50 (SARS-CoV-2; viral replication; Huh-7): > 2 µM
C=C(C)[C@@H]1[C@H]2OC(=O)[C@@H]1[C@]1(O)C[C@H]3O[C@]34C(=O)O[C@H]2[C@]14C — nuclei count (mouse MPNST tumor cells; high-content nuclear imaging, refers to: cell number; 10 µM, 12 h, mean of 2 replicates; baseline: plate mean, higher = more cells): 0.775 z-score
O=[N+]([O-])c1ccc(O)c2ncccc12 — EC50 (SARS-CoV-2; viral replication; Omicron): 4.1 ± 0.7 µM
CC[C@H](C)[C@H](NC(=O)[C@H](CCC(=O)O)NC(=O)[C@H](CCCCN)NC(=O)[C@H](CC(C)C)NC(=O)[C@H](CC(=O)O)NC(=O)[C@@H](NC(=O)[C@H](Cc1ccc(O)cc1)NC(=O)[C@H](CO)NC(=O)[C@H](CCC(=O)O)NC(=O)[C@H](CCC(=O)O)NC(=O)[C@H](CC(C)C)NC(=O)[C@H](CCCCN)NC(=O)[C@H](CCCCN)NC(=O)[C@@H](NC(=O)[C@H](C)NC(=O)[C@H](CCC(=O)O)NC(=O)[C@H](CCC(=O)O)NC(=O)[C@H](CC(C)C)NC(=O)[C@H](CCCCN)NC(=O)[C@H](CCCCN)NC(=O)[C@H](CCSC)NC(=O)[C@H](CCC(=O)O)NC(=O)[C@H](Cc1ccc(O)cc1)NC(=O)[C@H](CCC(=O)O)NC(=O)[C@H](CC(C)C)NC(=O)[C@H](CC(=O)O)NC(=O)[C@H](CC(C)C)NC(=O)[C@H](Cc1ccccc1)NC(=O)[C@@H](NC(=O)[C@@H](NC(=O)[C@H](CC(N)=O)NC(=O)[C@@H](NC(=O)[C@H](CCC(N)=O)NC(=O)[C@H](CC(=O)O)NC(=O)[C@H](CC(C)C)NC(=O)[C@@H](N)CO)[C@@H](C)CC)C(C)C)[C@@H](C)O)[C@@H](C)CC)[C@@H](C)CC)C(=O)O — IC50 (Spike glycoprotein (S, Human coronavirus NL63, UniProt Q6Q1S2)): 0.78 ± 0.18 µM
CSCC[C@H](NC(=O)[C@H](CCCNC(=N)N)NC(=O)[C@H](Cc1ccccc1)NC(=O)[C@H](CS)NC(=O)[C@H](C)NC(=O)[C@@H](NC(=O)[C@@H](NC(=O)[C@H](C)NC(=O)[C@H](CCCNC(=N)N)NC(=O)[C@H](CCCNC(=N)N)NC(=O)[C@H](CCCNC(=N)N)NC(=O)[C@H](CCC(N)=O)NC(=O)[C@H](CCCCN)NC(=O)[C@H](CO)NC(=O)[C@H](CC(C)C)NC(=O)[C@H](CC(C)C)NC(=O)[C@H](CCCCN)NC(=O)[C@H](Cc1c[nH]cn1)NC(=O)[C@H](Cc1c[nH]c2ccccc12)NC(=O)[C@@H](NC(=O)[C@H](C)NC(=O)[C@H](CCCCN)NC(=O)[C@H](CCCCN)NC(=O)[C@H](CO)NC(=O)[C@H](CCCCN)NC(C)=O)C(C)C)C(C)C)C(C)C)C(=O)N[C@H](C(=O)N1CCC[C@H]1C(=O)N[C@@H](CC(C)C)C(=O)N[C@@H](Cc1ccc(O)cc1)C(=O)N[C@@H](CC(N)=O)C(N)=O)[C@@H](C)O — apparent ΔG2 (calmodulin 1-148 sites I and II; calcium binding, Phe fluorescence titration; 12 µM, pH 7.4, 22 °C, with: 6 µM calmodulin): -16.5 ± 0.18 kcal/mol
C[C@H]1O[C@@H](O[C@H]2[C@@H](O)C[C@H](O[C@H]3[C@@H](O)C[C@H](O[C@H]4CC[C@@]5(C)[C@H](CC[C@@H]6[C@@H]5CC[C@]5(C)[C@@H](C7=CC(=O)OC7)CC[C@]65O)C4)O[C@@H]3C)O[C@@H]2C)C[C@H](O)[C@@H]1O — parasite load (Plasmodium berghei; Huh-7, liver stage; 10 µM, 24 h; baseline: control): 16.6%

Excerpt of the above (set 2):
O=C(O)c1c(Sc2ccccc2)c2cc(Cl)ccc2n1Cc1ccc(Cl)cc1: 55.3%
CC(CCc1ccc(O)cc1)NCC(O)c1ccc(O)cc1 (stereo not shown): 6.5%
CCCCCCCCCCC(=O)O[C@H]1CC[C@H]2[C@@H]3CCC4=CC(=O)CC[C@]4(C)[C@H]3CC[C@]12C: 4.51%
CC(C)(c1ccc(O)cc1)c1ccc(O)cc1: 4.97%
CC(C)[N+](C)(CCC(C(N)=O)(c1ccccc1)c1ccccc1)C(C)C: -3.33%
